Measurements collected from several papers.
Target: Procathepsin L (CTSL, Homo sapiens, UniProt P07711)
Sequence of UniProt P07711 (whole entry, looked up): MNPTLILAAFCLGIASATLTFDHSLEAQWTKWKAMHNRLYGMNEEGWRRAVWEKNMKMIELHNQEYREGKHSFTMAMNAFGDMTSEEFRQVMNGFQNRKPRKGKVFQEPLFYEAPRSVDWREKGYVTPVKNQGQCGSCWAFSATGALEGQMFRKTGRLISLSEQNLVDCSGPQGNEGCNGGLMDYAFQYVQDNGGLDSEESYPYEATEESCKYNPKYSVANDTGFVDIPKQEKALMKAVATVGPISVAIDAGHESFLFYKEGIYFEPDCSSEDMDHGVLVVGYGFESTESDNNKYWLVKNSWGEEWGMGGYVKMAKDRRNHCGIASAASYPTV

Compound | test | setting | scale | measurement | value
CCCNC(=O)[C@H]1O[C@@H]1C(=O)N[C@H](C(=O)N1CCC[C@H]1C(=O)OCC1=C2C(C)=CC(C)=[N+]2[B-](C)(C)n2c(C)cc(C)c21)[C@@H](C)CC | inactivator | light | relative to: cathepsin B over CTSL | selectivity ratio | 220
Oc1ccc(/C=N/C23CC4CC(CC(C4)C2)C3)cc1 | enzyme activity, inhibitor | 100 µM, with preincubation | – | inhibition | -51%
O=C(Oc1cncc(Cl)c1)c1cccc2[nH]ccc12 | enzyme activity, inhibitor | 10 µM | – | inhibition | 2%
O=C(c1cccc(-n2cccc2)c1)N1CCCN(S(=O)(=O)c2ccc(F)cc2)CC1 | FRET | – | – | Hill slope | 1.2
COc1ccc2c(c1NC(=O)OCc1ccc(NC(=O)C(CCCNC(N)=O)NC(=O)C(NC(=O)CCCCCN3C(=O)CC(SCC(NC(C)=O)C(=O)O)C3=O)C(C)C)cc1)CCC=C2c1cc(OC)c(OC)c(OC)c1 (mixture of isomers) | enzyme activity, substrate, HPLC | 1.5 h, pH 5.5, 25 °C, human enzyme, with: CTSL 600 nM | – | payload release | 57%
Oc1cccc(/C=N/C23CC4CC(CC(C4)C2)C3)c1 | enzyme activity, inhibitor | 100 µM, with preincubation | – | inhibition | 4%
CC(C)C[C@H](NC(=O)[C@H]1O[C@@H]1C(=O)O)C(=O)NCCCCN=C(N)N | – | – | – | Hill slope | -1.71
CS(C)(=O)=Nc1ccc(-c2ccc(-c3nc4cc(O[C@@H]5CO[C@H]6[C@@H]5OC[C@H]6O)[nH]c4cc3F)cc2)cc1 | enzyme activity, inhibitor | 10 µM | – | inhibition | 24%
Oc1ccccc1/C=N/C12CC3CC(CC(C3)C1)C2 | enzyme activity, inhibitor | 100 µM, with preincubation | – | inhibition | -14%

Some of these lines once more:
Compound | test | setting | scale | measurement | value
O=C(Oc1cncc(Cl)c1)c1cccc2[nH]ccc12 | enzyme activity, inhibitor | 10 µM | – | inhibition | 2%
